Measured values from different studies.
Each line is one published result; not all experiments were run side by side. “And” joins repeats or separate records; there may be more than shown. ± marks the error that the study gave. Converted amounts (≈) assume the structure as drawn.

SMILES	assay	test system	conditions	how to read	quantity	value
C[C@H](CCC(=O)NCCS(=O)(=O)O)[C@H]1CC[C@H]2[C@@H]3CC[C@@H]4C[C@H](O)CC[C@]4(C)[C@H]3C[C@H](O)[C@]12C		human, plasma	endogenous baseline diurnal	relative to: daily mean concentration	relative peak deviation	214 ± 20%
CN(C(=O)n1cnc(-c2cccnc2)c1)C1CCCCC1		Wistar rat, pons	oral, 10 mg/kg/day of BIA 10-2474, 48 h, repeated 5 days		concentration	7.8 ± 0.2 ng/g
Cc1cc(Nc2ccc(S(F)(F)(F)(F)F)cc2)n2nc(C(C)(F)F)nc2n1		Plasmodium vivax malaria patients	oral, 800 mg		adverse event Diarrhoea	28.6%
CNCc1ccc(-c2[nH]c3cc(F)cc4c3c2CCNC4=O)cc1		human patients	oral, 840 mg twice daily, all grades		diarrhoea incidence	100%
CC(C)Oc1c(NC(=O)c2ccc(NC(=O)[C@H](CC(N)=O)NC(=O)c3ccc(NC(=O)c4ccc(C#N)cc4)cc3)cc2)ccc(C(=O)N/N=C/c2ccc(C(=O)O)cc2)c1O	absorbance	DMSO	45 °C, PSS to ground state relaxation		thermal half-life	0.6 h
Cl.[2H]C([2H])([2H])CC(=O)c1cnc(NC(=O)C2CC2)cc1Nc1cccc(-c2ncn(C([2H])([2H])[2H])n2)c1OC	median	human	oral, 20 mg once daily, day 1, fasted, liquid, multiple dose		Tmax	1.32 h
CCN1/C(=C/C(C)=O)Sc2ccc(F)cc21		cynomolgus monkey	oral, 10 mg/kg, 1 h post-dose	relative to: pre-dose	diastolic blood pressure change	104 ± 8.8%
O=C(COc1ccc(Cl)cc1)NC12CC(c3nnc([C@H]4C[C@@H](OC(F)(F)F)C4)o3)(C1)C2	refers to: Presyncope	healthy humans, both sexes	oral, 400 mg, single ascending dose	relative to: subjects	treatment-emergent adverse events	16.7%
CCCn1cc(C)c2c(=O)[nH]c(-c3cc(S(=O)(=O)N4CCN(CC)CC4)ccc3OCC)nc21		human	concentration not given, treatment-emergent adverse event		blood pressure increased	16.7%
CC(C)[C@H](C(=O)Nc1ccc(C(=O)NO)cc1)c1ccccc1		whole blood	10.0 ng/mL, 3 h, 4 °C, stability on ice		measured concentration	10 ng/mL
COc1cc(Nc2ncc3c(n2)-c2ccc(Cl)cc2C(c2c(F)cccc2OC)=NC3)ccc1C(=O)O	refers to: Pain, grade 1	cancer patients, phase 1/2	oral, dose not given, together with: pembrolizumab		patients with adverse event	8%
OC[C@H]1O[C@@H](c2ccc(Cl)c(Cc3ccc(O[C@H]4CCOC4)cc3)c2)[C@H](O)[C@@H](O)[C@@H]1O		Japanese type 1 diabetes patients, blood	25 mg, day 28	relative to: baseline	change in LDL cholesterol	3.42 mg/dL
CCn1ncc2c1-c1cnc(N)c(c1)O[C@H](C)c1cc(F)ccc1-c1nn(C)nc1C2		female athymic nude mice, sample A PDX	oral, 0.04 mg/kg once daily for 1 days, 1 h		unbound plasma concentration	4.3 ± 0.3 nM
N#C[C@@]1(c2ccc3c(N)ncnn23)O[C@H](CO)[C@@H](O)[C@H]1O		rat plasma	1 to 100 µM, mean over concentrations		unbound fraction	0.941
CN1CCN(c2cccc3c2CCN(C(=O)/C=C/c2c(-n4cnnn4)ccc(Cl)c2F)[C@@H]3C(=O)Nc2ccc(C(=O)O)cc2)C(=O)C1		healthy human subjects	intravenous infusion, 25 mg/h, 2 h		subjects with headache	0%
Cc1cccc(CNC(=O)c2cn(CCNC(=O)c3ccccc3Sc3c([N+](=O)[O-])ncn3C)c3cc4c(cc3c2=O)OCO4)n1		Beagle dog, whole blood	1 µM, 1.5 h		remaining compound	72.5%
O=C(O)CCC(=O)O.[2H]C([2H])([2H])Oc1cc(C)c2[nH]ccc2c1CN1CC[C@@H](C2CC2)C[C@H]1c1ccc(C(=O)O)cc1		human, plasma	300 mg once daily, day 10, multiple ascending dose, geometric mean		Cmax	7290 ng/mL
CC(C)(C(=O)N1CCOc2c(C#N)cncc2C1)C(F)F		human, both sexes	oral, 20 mg single dose		subjects with tachycardia TEAE	16.7%
O=C(Nc1cnccc1Cl)N1CCN(Cc2ccc3c(c2)OC(F)(F)O3)CC1		young men, plasma	oral, 25 mg once daily, day 10, normalized to 10 mg		dose-normalized AUC(0-tau)	882 ng·h/mL
COc1cccc(OC)c1-c1cc(C(=O)NC2(C(=O)O)C3CC4CC(C3)CC2C4)nn1-c1ccc(C(=O)N(C)CCCN(C)CCCN(C)C(=O)CN2CCN(CC(=O)[O-])CCN(CC(=O)[O-])CCN(CC(=O)[O-])CC2)cc1C(C)C.[177Lu+3] (stereo not shown)		mouse, HT-29 xenograft, spleen	72 h post injection		tissue uptake	0.15 %ID/g

SMILES	assay	test system	conditions	how to read	quantity	value
NC1(C(=O)N[C@@H](CCO)c2ccc(Cl)cc2)CCN(c2ncnc3[nH]ccc23)CC1		human patients, plasma	480 mg twice daily, day 8, continuous dosing		geometric mean Cmax	2030 ng/mL
Cc1ccc([C@@H]2O[C@H](CO)[C@@H](O)[C@H](O)[C@H]2O)cc1Cc1ccc(-c2ccc(F)cc2)s1		Japanese type 2 diabetes patients	400 mg, day 17, 24 h urine collection	relative to: baseline	urinary sodium excretion change	3.68 mEq
Cc1cc(NC2CCN(C(=O)OC3CCN(C(=O)/C=C/CN(C)C)C3)CC2)n2ncc(C(C)C)c2n1 (stereo not shown)		patients with advanced solid tumours	dose not given, QD arm, any grade		patients with Asthenia	5%
CCc1cc(C(=O)NC)c2nccc(N3CCc4c(cc(Cn5ccnc5)cc4-c4cn(C)nc4C(F)(F)F)C3=O)c2c1		Sprague Dawley rat	oral, 100 mg/kg once daily, day 5, 7-day toxicology study	relative to: day 1	body weight change	12.2%
O=C(c1cccnc1-c1ccncc1)N1CCC(O)(Cc2ccccc2)CC1		healthy Japanese adults, plasma	oral, 100 mg twice daily, day 7		terminal half-life	3.63 h
O=c1c(NCCc2cccc(Cl)c2)c(Nc2ccc(Cl)cc2)c1=O		rat	ip, 5.6 mg/kg		locomotor activity	no effect
CCN1CCN(Cc2ccc(NC(=O)c3ccc(C)c(NC(=O)c4cncc(-c5cccs5)c4)c3)cc2C(F)(F)F)CC1		C57BL/6 mice, epithelial lining fluid	intraperitoneal, 10 mg/kg		dose-normalised AUC	0.45 kg·µg·h/mL/mg
Cc1ccc(Sc2ccccc2N2CCNCC2)c(C)c1	refers to: protein in urine	healthy adult men	oral, 5 mg daily, 12 days		participants with TEAE	16.7%
O=C1CCCCN1c1ccc(CO[C@@H]2COc3nc([N+](=O)[O-])cn3C2)cc1F		aqueous buffer	pH 7.4		aqueous solubility	31 µg/mL (≈ 79.4 µM)
Cc1cc(C)c(CNC(=O)c2cc(Cl)c3c(c2C)O[C@@](C)([C@H]2CC[C@H](N(C)C)CC2)O3)c(=O)[nH]1		relapsed/refractory NHL patients	oral, 200 mg once daily, onset after cycle 1 day 1		grade ≥3 Neutrophil count decreased	16.7%
C[C@H]1O[C@@H](O[C@H]2CC[C@@]3(C)[C@@H](CC[C@]4(C)[C@@H]3C=C[C@]35OC[C@@]6(CCC(C)(C)C[C@H]63)[C@@H](O)C[C@]54C)[C@]2(C)CO)[C@H](O)[C@@H](O[C@@H]2O[C@H](CO)[C@@H](O)[C@H](O)[C@H]2O)[C@H]1O	UHPLC-MS/MS	mouse, plasma	oral, 50 mg/kg, 8 h		plasma concentration	0 ng/mL
COc1ncc(-c2nc3c(n2C(C)C)[C@H](c2ccc(Cl)cc2)N(c2cc(Cl)cn(C)c2=O)C3=O)c(OC)n1		human patients, plasma	oral, 45 mg, cycle 1 day 1, low-dose		median half-life	11.7 h
Nc1ncnc2c1ncn2[C@H]1C[C@@H]2OP(=O)(O)OC[C@H]3O[C@@H](n4cnc5c(N)ncnc54)C[C@@H]3OP(=O)(O)OC[C@H]2O1		non-tumor-bearing mice, serum	intravenous, 1 mg/kg, toxicity study		AST	200 ± 35.9 U/L
CCO[C@H]1CCN(Cc2c(OC)cc(C)c3[nH]ccc23)[C@H](c2ccc(C(=O)O)cc2)C1		healthy volunteers, plasma	oral, 200 mg single dose, median		unbound half-life	12.9 h
CCN(Cc1ccc(F)cc1)c1ccc(CO)c(Cl)c1		male F344 rat, liver	oral, 100 mg/kg/day, 2 days	direction not given	liver histopathology score	0 and 4
COc1ccc2c(c1)CN(C(=O)CCN1CCC(Cc3ccccc3)CC1)CC[S@@+]2[O-]	telemetry	conscious male beagle dogs	intravenous, 8 mg/kg, 2 h		PQ interval	87 ± 6 ms
CCOc1c([C@H](C)n2nc(C)c3c(N)ncnc32)cc(Cl)c(F)c1[C@@H]1CNC(=O)C1	refers to: QTcF ≤450 ms	previously treated B-cell malignancy	oral, 30 mg once daily, overall population		ECG observations	92.9%
CNC(=O)c1ccc(-c2cnc3ncc(Cc4ccc5ncccc5c4)n3n2)cc1F	refers to: Dyspepsia	other cancer patients	oral, 600 mg twice daily, expansion cohort, grade 3-4		patients with adverse event	0%
Cc1ccc(C(=O)N(CCCN)C(c2nc3snc(C)c3c(=O)n2Cc2ccccc2)C(C)C)cc1 (stereo not shown)		human patients	intravenous, 18 mg/day		grade ≥3 dysphagia patients	0%
NS(=O)(=O)c1ccc(-n2nc(C(F)(F)F)cc2-c2ccc(CO)cc2)cc1		Sprague-Dawley rat	oral, 20 mg/kg of celecoxib, 4 h		blood-to-plasma ratio	12.9

For quick reference, copied from above:
SMILES	assay	test system	conditions	how to read	quantity	value
Cc1ccc(C(=O)N(CCCN)C(c2nc3snc(C)c3c(=O)n2Cc2ccccc2)C(C)C)cc1 (stereo not shown)		human patients	intravenous, 18 mg/day		grade ≥3 dysphagia patients	0%
CCCn1cc(C)c2c(=O)[nH]c(-c3cc(S(=O)(=O)N4CCN(CC)CC4)ccc3OCC)nc21		human	concentration not given, treatment-emergent adverse event		blood pressure increased	16.7%
O=C1CCCCN1c1ccc(CO[C@@H]2COc3nc([N+](=O)[O-])cn3C2)cc1F		aqueous buffer	pH 7.4		aqueous solubility	31 µg/mL (≈ 79.4 µM)
CNC(=O)c1ccc(-c2cnc3ncc(Cc4ccc5ncccc5c4)n3n2)cc1F	refers to: Dyspepsia	other cancer patients	oral, 600 mg twice daily, expansion cohort, grade 3-4		patients with adverse event	0%
COc1cccc(OC)c1-c1cc(C(=O)NC2(C(=O)O)C3CC4CC(C3)CC2C4)nn1-c1ccc(C(=O)N(C)CCCN(C)CCCN(C)C(=O)CN2CCN(CC(=O)[O-])CCN(CC(=O)[O-])CCN(CC(=O)[O-])CC2)cc1C(C)C.[177Lu+3] (stereo not shown)		mouse, HT-29 xenograft, spleen	72 h post injection		tissue uptake	0.15 %ID/g
NS(=O)(=O)c1ccc(-n2nc(C(F)(F)F)cc2-c2ccc(CO)cc2)cc1		Sprague-Dawley rat	oral, 20 mg/kg of celecoxib, 4 h		blood-to-plasma ratio	12.9
NC1(C(=O)N[C@@H](CCO)c2ccc(Cl)cc2)CCN(c2ncnc3[nH]ccc23)CC1		human patients, plasma	480 mg twice daily, day 8, continuous dosing		geometric mean Cmax	2030 ng/mL
